Assay results pooled from the literature.
Protocols differ between the studies behind these lines. Numbers after ± are the reported error.
FPR2: N-formyl peptide receptor 2 (FPR2, Homo sapiens, UniProt P25090)

Chains of the proteins cited; added tags and fusions are not shown.
UniProt P25090, whole entry: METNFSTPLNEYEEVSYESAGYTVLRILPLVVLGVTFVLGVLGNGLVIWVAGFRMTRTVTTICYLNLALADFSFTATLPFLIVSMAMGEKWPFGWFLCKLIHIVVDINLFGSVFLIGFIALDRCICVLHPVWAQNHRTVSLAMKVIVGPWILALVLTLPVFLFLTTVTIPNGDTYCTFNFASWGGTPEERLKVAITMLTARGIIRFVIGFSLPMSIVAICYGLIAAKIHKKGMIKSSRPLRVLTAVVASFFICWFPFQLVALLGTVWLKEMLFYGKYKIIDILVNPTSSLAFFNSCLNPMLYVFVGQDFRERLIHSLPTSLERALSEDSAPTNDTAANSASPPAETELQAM
UniProt Q5BJF2, whole entry: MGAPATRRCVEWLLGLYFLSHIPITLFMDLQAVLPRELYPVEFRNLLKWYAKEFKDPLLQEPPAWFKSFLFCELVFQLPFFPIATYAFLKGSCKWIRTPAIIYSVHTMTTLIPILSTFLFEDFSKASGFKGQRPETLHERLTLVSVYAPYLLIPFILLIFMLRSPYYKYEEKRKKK
UniProt P19327, whole entry: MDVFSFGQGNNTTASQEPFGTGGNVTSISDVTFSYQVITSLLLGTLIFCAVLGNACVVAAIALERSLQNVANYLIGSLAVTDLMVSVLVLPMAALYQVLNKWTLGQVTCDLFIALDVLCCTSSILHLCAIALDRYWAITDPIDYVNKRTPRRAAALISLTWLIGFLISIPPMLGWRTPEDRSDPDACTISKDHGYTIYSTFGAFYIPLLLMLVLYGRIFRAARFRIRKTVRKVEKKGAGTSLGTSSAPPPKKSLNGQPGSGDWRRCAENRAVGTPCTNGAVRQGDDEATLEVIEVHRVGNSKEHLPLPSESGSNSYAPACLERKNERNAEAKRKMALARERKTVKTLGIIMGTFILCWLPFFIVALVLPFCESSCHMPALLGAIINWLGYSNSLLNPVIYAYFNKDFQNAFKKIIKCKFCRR
UniProt P00492, whole entry: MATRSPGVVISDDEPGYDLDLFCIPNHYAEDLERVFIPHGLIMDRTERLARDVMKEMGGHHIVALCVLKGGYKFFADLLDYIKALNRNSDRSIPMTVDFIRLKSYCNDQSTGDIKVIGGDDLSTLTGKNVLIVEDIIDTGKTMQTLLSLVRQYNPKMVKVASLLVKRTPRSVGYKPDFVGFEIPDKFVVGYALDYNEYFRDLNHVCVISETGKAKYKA
UniProt O96013, whole entry: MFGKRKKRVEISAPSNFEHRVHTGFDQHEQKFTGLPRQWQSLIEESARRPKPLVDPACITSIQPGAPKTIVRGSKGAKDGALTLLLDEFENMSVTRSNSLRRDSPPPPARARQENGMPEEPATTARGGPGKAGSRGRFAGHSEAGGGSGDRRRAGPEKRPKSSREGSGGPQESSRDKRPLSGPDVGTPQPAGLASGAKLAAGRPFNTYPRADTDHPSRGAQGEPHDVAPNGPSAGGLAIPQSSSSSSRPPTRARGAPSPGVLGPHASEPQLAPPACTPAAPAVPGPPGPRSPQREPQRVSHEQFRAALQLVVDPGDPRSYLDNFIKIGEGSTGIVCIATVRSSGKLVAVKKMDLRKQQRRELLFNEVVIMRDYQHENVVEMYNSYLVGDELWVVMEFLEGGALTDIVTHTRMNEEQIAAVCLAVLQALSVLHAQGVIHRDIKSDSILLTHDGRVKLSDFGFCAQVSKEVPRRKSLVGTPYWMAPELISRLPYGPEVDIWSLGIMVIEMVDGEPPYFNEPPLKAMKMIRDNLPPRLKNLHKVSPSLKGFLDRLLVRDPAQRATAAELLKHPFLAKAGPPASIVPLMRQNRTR
UniProt P14416, whole entry: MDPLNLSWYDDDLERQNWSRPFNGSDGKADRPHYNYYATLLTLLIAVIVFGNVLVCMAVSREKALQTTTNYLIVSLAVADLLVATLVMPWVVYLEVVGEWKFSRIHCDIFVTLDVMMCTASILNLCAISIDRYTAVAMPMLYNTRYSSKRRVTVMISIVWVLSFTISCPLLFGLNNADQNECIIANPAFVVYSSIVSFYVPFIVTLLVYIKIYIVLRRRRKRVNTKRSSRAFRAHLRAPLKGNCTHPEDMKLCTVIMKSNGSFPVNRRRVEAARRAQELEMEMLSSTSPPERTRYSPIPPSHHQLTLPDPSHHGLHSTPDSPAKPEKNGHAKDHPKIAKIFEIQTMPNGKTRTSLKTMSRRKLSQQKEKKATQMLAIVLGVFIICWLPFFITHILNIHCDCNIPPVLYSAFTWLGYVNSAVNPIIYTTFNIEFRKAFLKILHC
UniProt Q16539, whole entry: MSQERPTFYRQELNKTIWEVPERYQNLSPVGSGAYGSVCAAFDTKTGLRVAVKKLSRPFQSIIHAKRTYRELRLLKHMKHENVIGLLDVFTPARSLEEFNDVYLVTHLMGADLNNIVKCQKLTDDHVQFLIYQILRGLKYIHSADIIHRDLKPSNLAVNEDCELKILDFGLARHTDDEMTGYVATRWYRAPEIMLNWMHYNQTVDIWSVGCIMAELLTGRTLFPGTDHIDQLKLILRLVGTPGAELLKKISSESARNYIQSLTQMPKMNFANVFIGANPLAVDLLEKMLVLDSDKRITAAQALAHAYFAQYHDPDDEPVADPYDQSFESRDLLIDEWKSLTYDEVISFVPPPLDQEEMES

| SMILES | target or system | assay | system | setting | endpoint | value |
| --- | --- | --- | --- | --- | --- | --- |
| CCOC(=O)c1c(-c2ccc(Cl)cc2Cl)n(-c2nc(-c3ccc(Cl)cc3)c3c(NC(=O)c4ccccc4)nnc-3[nH]2)[nH]c1=O | SK-MEL-5 | SRB |  | 10 µM | cell growth | -98.6% |
| CN1C(=O)CCc2cc(CNC(C)(C)[C@@H](O)c3ccccc3)ccc21 | TMEM97 (Homo sapiens, UniProt Q5BJF2) | binding, [3H]DTG displacement | Expi293 membranes |  | Ki | 4 nM |
| c1cnc2c(N3CCN(CCCN4CCN(c5cccc6sccc56)CC4)CC3)cccc2c1 | Htr1a (Rattus norvegicus, UniProt P19327) | binding |  |  | Ki | 58.5 ± 4.2 nM |
| NS(=O)(=O)c1nnc(NC(=O)C2C3CC4CC(C3)CC2C4)s1 (stereo not drawn) | Enterococcus faecium gamma-carbonic anhydrase | CO2 hydration, inhibitor, stopped-flow kinetics |  |  | Ki | 288 nM |
| C=C(C)C(=O)Nc1ccc(-c2c(-c3ccc(Oc4nccc(C)n4)c(F)c3)c3c(N)ncnc3n2C)cc1 | MFE-280 | cell growth, CellTiter-Glo |  | 120 h | IC50 | 419 nM |
| NS(=O)(=O)c1nnc(NC(=O)CC2C3CC4CC(C3)CC2C4)s1 (stereo not drawn) | Enterococcus faecium gamma-carbonic anhydrase | CO2 hydration, inhibitor, stopped-flow kinetics |  |  | Ki | 182 nM |
| O=c1[nH]cnc2c(CNCCCP(=O)(O)O)c[nH]c12 | Hypoxanthine-guanine phosphoribosyltransferase (Homo sapiens, UniProt P00492) | enzyme activity, inhibitor, spectrophotometric |  |  | Ki | 4940 nM |
| Nc1nccc(-n2cc(C(=O)N3CCCC3)c3ccc(C#CC4(O)CCCCC4)cc32)n1 | PAK4 (Homo sapiens, UniProt O96013) | inhibitor, HTRF |  |  | Ki | 455 nM |
| CCn1c2c(c3ccccc31)CCN(CCCCNC(=O)c1ccc3[nH]c4ccccc4c3c1)C2 | DRD2 (Homo sapiens, UniProt P14416) | binding |  |  | Ki | > 10000 nM |
| CCc1cc2c(=O)c(-c3nc4ccccc4n3C)c(C)oc2cc1OC(C)=O | FPR2 | binding |  | above upper limit in 18 of 20 runs | Ki | > 17800 nM |
| N#Cc1c(-c2ccc(Cl)cc2Cl)n(-c2nc(-c3ccc(Cl)cc3)c3c(NC(=O)c4ccccc4)nnc-3[nH]2)[nH]c1=O | SK-MEL-28 | SRB |  | 10 µM | cell growth | 53.8% |
| CC(C)(CC(=O)Nc1nnc(S(N)(=O)=O)s1)C1CCCCC1 | Enterococcus faecium gamma-carbonic anhydrase | CO2 hydration, inhibitor, stopped-flow kinetics |  |  | Ki | 283 nM |
| COc1ccc(-c2cn3cccnc3n2)cc1NC(=O)C(C)C | FPR2 | binding |  |  | Ki | 270 ± 51 nM |
| CC/C=C\C/C=C\CCC/C=C/C=C/C=C\CCCC(=O)O | DNA polymerase alpha catalytic subunit (Bos taurus, UniProt A0A3Q1MF00) | enzyme activity, inhibitor |  |  | IC50 | > 100000 nM |
| CC(C)C[C@H](NC(=O)[C@H](C)NC(=O)[C@H](CCCNC(=N)N)NC(=O)[C@H](CCCNC(=N)N)NC(=O)[C@H](CCCNC(=N)N)NC(=O)[C@H](C)NC(=O)[C@H](CC(C)C)NC(=O)[C@H](CCCNC(=N)N)NC(=O)[C@H](CO)NC(=O)[C@H](CCCCN)NC(=O)[C@H](CO)NC(=O)Cn1cc(COC(=O)[C@]2(C)C=C(C(=O)OC(C)(C)C)C(=O)CC2)nn1)C(=O)O | MAPK14 (Homo sapiens, UniProt Q16539) | enzyme activity, inhibitor, D-SENSOR |  | 0.2743 µM | normalized kinase activity | 0.595 |

Some of these lines once more:
| SMILES | target or system | assay | system | setting | endpoint | value |
| --- | --- | --- | --- | --- | --- | --- |
| N#Cc1c(-c2ccc(Cl)cc2Cl)n(-c2nc(-c3ccc(Cl)cc3)c3c(NC(=O)c4ccccc4)nnc-3[nH]2)[nH]c1=O | SK-MEL-28 | SRB |  | 10 µM | cell growth | 53.8% |
| CCn1c2c(c3ccccc31)CCN(CCCCNC(=O)c1ccc3[nH]c4ccccc4c3c1)C2 | DRD2 (Homo sapiens, UniProt P14416) | binding |  |  | Ki | > 10000 nM |
